Assay results gathered from unrelated publications.
Each numbered part is a random draw from the data of one study; scales do not carry over between parts. Changes are numbered by the printed parent chain.

Study 1
Target: Histone acetyltransferase KAT6A, both winged helices, GST fusion (KAT6A, Homo sapiens, UniProt Q92794, residues 1-181)
Technique: protein binding microarray
Molecule type: double-stranded DNA, one strand shown
Matrix: in vitro
Tested at: not given
Setting: 8-mer, flanks averaged, mean of 2 arrays, mostly near background
Baseline: not given
Direction: higher = stronger binding
Target sequence (chain): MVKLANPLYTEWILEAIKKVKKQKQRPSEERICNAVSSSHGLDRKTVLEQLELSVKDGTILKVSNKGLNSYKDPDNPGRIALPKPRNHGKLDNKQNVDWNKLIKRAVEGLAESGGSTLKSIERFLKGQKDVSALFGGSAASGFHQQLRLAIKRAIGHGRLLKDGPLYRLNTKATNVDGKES
Strand	E-score
AATGTCCA	-0.169
ACCCACGT	-0.28
AATTGTCC	-0.00912
ACACCCTC	-0.227
AGTCCCGC	0.186
AGAGCCTC	0.00479
AACGCTCG	0.171
CAGGAAAG	-0.167
ACTCTCAG	-0.135
GAACGTAC	-0.0384
ATTCCGAC	0.18
CGAACAAA	0.153
AGGTCAAG	-0.195
GCTCTCCA	-0.295
CGCACCTC	0.0262
GGTCTCCA	-0.197
CGATTATA	-0.0527
GAGTTCGA	0.00852
AAAGCACC	-0.031
CCTCCTAA	-0.272
CGGTATCA	0.174
ATGCAGAG	-0.134
GCATACCC	-0.0315
GGCGTTAC	0.06
ACGAGTCG	0.00645

Study 2
Target: RNA binding protein fox-1 homolog 2, RRM domain, GST-SBP tag (RBFOX2, Homo sapiens, UniProt O43251-10, residues 100-194)
Technique: RNA Bind-n-Seq
Molecule type: RNA
Matrix: in vitro
Tested at: 365 nM
Setting: natural RNA segment, single round, ends assumed
Baseline: no-protein control
Direction: higher = stronger binding
Shared flanks, not repeated: GGGAGUUCUACAGUCCGACGAUC … UGGAAUUCUCGGGUGCCAA
Target sequence (chain): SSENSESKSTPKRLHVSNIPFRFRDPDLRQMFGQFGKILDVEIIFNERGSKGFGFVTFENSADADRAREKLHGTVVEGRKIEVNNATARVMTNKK
Strand	RBNS enrichment (R)
UGUAAAAAUUGUAUAUAUUUUUACAGAAAGUCUAUUUCUUUGAACAUAAGAGGGAAGUCUUGGAUUUAGUUUUUUUCCAUACCCUUUUGAAAUUUGCAGCUUCUCUAGUU	0.567
AGCUCACACUGUAAUCACAGUGACUCAGGAGGCUGAGGUGAGAGGAUUCCUUGAGGCCAGGGUUCGAGACCAACCUUGGGCAACAUAGCAAGACCCCAUUUCUUAAAAAA	0.315
UUACUAUGCUAUCAAUUCCAUAUAUGGAAAGGUGUUUUCCCUUUCAGAGCUCUUUAAAGCUCUGCAGAAGAUUUACAUGUGUUUAUAGAGCUAAGAGAAAUCAGGGCAUG	0.937
AUGUUUCAGUCUUUCGGAGUAAAUCACAUUUGUGAUAAUCAUACUAGAUCUCUGUCUUCAGUCUCAUUUAAAGUCUUCAUGAAAUGCUGUGCCAUUUCAUGUCCUGUGUC	0.503
CCUCAGUUUUCCAUCUGUUUUUGAUAAGAAUAAGAAAGGGAGUGAGUGUGAAGAUGGUGGUUAGCAGUUUCACUAAGACUGAUAUUUUAGGCCUCUUGUUCACAUCAAAA	0.433
UAAUGUACUUGAGUUUCAUUGUUCUUUUAGUUUGUAUUCUUAUAAAAAAUGUUUACACUCUGCAGAUUGAUUUUUUUUUUUUAGUACUGUGGCUUUCUUUUCCUAUUUUA	0.818
AAAGGGUGGCAUUUGAUUAAGUGACCAGGGUUCUUUGGAGUGAGUAGGAACAGCAUUUCUUACAACCGCCCCAGGACCUGAUUUGGCAAGACUGACUAGCUCUCUUUAGC	0.38
ACCCAUCCAGAACCACGUGCACGAGUUUUUACCUAGCUGGUUGUUUCCGAGGACCAGGCACUCGAUCCUGUCUCUGUGAGAAUGUAUACUUUAUGCUCUCUGAAAUAUAU	8.1
AUCCAGGUAAGACCGGAUUGAAGCUUUGAAAUUAGACUAACAAAGCUCCAGACAGCAAGAGCCCAGGUGCACUGCUCACACCCCCACCUGCAUUUUGAAGUCAUAUUAUU	0.726
GAGUCUGUCACACUCUCUUGGGCCAGCCCCAGCACCUCAUGCAGAGGGUGGGGUACUGGAGUUAGAUCUCUAAGCCCCUCCUGGAACCCUCAUUUUCCCCACUCUCAAUG	1.79
CUGCUCAGAGUGCCUCUGGUUUCUUUUCAAAUUGUGGGGGGAAGGAUUAAAAACUUCAAAUGAUGGAAAAAGAGAUCUCUUGUGAAACGAAACGCCCCGUGUUAAUAACU	0.843
GAGAAAUCUAUUGGUCUGAAGGUUUCUGAACCUCUUUCUGGUUCUCAGCAGAAGUAACUGAAGUAGAUCAGGAAGGGGCUGCCUCAGGAAAAUUCCUAGAUCCUAGGAAU	0.264

Study 3
Target: Sal-like protein 4, full length isoform A (SALL4, Homo sapiens, UniProt Q9UJQ4, residues 1-1053)
UniProt Q9UJQ4, sequence (whole entry, looked up): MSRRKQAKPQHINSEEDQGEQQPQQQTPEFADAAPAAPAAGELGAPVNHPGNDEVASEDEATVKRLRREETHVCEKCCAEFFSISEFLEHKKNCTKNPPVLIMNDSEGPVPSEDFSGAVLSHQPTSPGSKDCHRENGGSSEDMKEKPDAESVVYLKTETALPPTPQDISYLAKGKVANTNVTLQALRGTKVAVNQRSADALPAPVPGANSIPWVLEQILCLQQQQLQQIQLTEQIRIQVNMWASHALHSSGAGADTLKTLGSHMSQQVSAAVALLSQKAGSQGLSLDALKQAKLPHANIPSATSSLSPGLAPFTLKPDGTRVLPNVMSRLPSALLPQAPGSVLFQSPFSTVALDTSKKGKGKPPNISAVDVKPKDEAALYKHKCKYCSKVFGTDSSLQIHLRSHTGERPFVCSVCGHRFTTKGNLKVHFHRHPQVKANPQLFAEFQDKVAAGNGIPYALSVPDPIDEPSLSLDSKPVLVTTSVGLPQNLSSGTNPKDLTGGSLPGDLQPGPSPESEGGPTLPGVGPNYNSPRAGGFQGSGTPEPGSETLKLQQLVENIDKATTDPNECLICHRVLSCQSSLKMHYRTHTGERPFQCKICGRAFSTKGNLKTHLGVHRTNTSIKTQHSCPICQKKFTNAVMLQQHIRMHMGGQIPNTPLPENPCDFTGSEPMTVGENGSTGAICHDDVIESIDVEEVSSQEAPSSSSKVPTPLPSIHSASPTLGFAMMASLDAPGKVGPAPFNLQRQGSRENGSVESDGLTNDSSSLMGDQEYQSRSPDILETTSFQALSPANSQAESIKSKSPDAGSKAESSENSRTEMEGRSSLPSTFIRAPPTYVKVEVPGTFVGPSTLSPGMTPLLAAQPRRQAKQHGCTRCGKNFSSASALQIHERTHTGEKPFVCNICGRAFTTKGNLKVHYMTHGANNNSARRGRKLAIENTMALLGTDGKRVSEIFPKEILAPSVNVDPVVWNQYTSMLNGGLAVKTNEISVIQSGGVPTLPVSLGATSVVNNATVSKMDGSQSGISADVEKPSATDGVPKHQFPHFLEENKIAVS
Technique: universal PBM
Molecule type: double-stranded DNA, one strand shown
Matrix: in vitro
Tested at: 600 nM
Setting: 8-mer, flanks averaged, mean of replicates
Direction: higher = stronger binding
Strand	E-score
CATCATTC	0.0761
AACATTTC	0.22
AACCAATT	0.164
ATCCCGGC	-0.215
CACACTTA	0.154
ATGAACGA	0.179
CGTCAATC	0.0486
CATTCGCG	0.011
CCATTCGC	-0.279
ACAACGAC	-0.0238
CACACTCA	0.264
ACTCTAGC	-0.092
AGCTGACT	-0.158
CTGCCAGC	-0.178
AATCTACA	0.203
GGCTGGTA	-0.273
GAGGACTA	0.0715
GTGTCCAA	-0.0389
AATGATAT	0.364
CAACACAG	-0.108
ACCGCCTC	-0.224
ACTCGGTC	-0.205
TACAGACA	0.2
CAGAACTA	0.0942
AGCGGTAA	0.036

Study 4
Target: Fragile X messenger ribonucleoprotein 1, C-terminal low-complexity region (Fmr1, Mus musculus, UniProt P35922)
Technique: RNA Bind-n-Seq
Molecule type: RNA
Matrix: in vitro
Tested at: 200 nM
Setting: whole 134-nt RNA, ends assumed
Together with: 150 mM KCl
Baseline: input library
Direction: higher = stronger binding
Shared flanks, not repeated: GGGAGUUCUACAGUCCGACGAUC … UGGAAUUCUCGGGUGUCAAGG
Strand	log2 enrichment
AAGUCCUGUGCUACACAUCGUAUGUACCGAAUCGGAAAAGGAAAAGGGAAAAGGGGAAAGUAUUAUGUUACGCCGUUCGGAUCUGCACUU	-0.506
UCAAGUCCUGUGCUACACAUCGUAUGUACCGAAUCGGUGGAAAAAAAGGUUUGGAAAGUAUUAUGUUACGCCGUUCGGAUCUGCACUUCC	-0.771
GUCCUGUGCUACACAUCGUAUGUACCGAAUCAAAUUUUUUUAAACCCCCAAACCCAAAAAAGUAUUAUGUUACGCCGUUCGGAUCUGCAC	-0.18
UGGGAGGUGGAUUUUGUUUAUAUUUUUAGCUCAUUUCCAGGGGUGGGAAUUUUUUUUUAAUAUGUGUCAUGAAUAAAGUUGUUUUUGAAA	0.297
UGCCUCUGCGGCUAGCUGAUUUUGGGGUACUUCAUAGGAACGAGCUGUCUGGAGCACUCACAGGACUCACCCGGGUACGAAGAUUCCAAC	-1.45
GCCCAUGCUAAAGUAAGAUUGUCUAACAAAGUUGAAGCCAUUGAUGUGGAAGAGGCCAAACGCCUCCAUCGGGAAGCUCUGAAGCAGUCU	-0.842
AGUCCUGUGCUACACAUCGUAUGUACCGAAUCAAAUUUAAAUUUUUUUAAAUUUAAAAAAGUAUUAUGUUACGCCGUUCGGAUCUGCACU	-1.6
UGGGACGUGGAUUUUGUUUAUUUUUUUAGCUCAUUUCCAGGGGUGGGAAUUUUUUUUUAAUAUGUGUCAUGAAUAAAGUUGUUUUUGAAA	-0.46
UUCCUCAAGUCCUGUGCUACACAUCGUAUGUACCGAAUCGGAGGAGGAGGAAAGUAUUAUGUUACGCCGUUCGGAUCUGCACUUCCAGCA	-1.05
UCAAGUCCUGUGCUACACAUCGUAUGUACCGAAUCGGUUUGGUUUGGGGUUUGGAAAGUAUUAUGUUACGCCGUUCGGAUCUGCACUUCC	-0.402
UGGGAGGUGGAUUUUGUUUAUUUUUUUAGCUCAUUUCCAGGGGUGGGAAUUUUUUUUUAAUAUGUGACAUGAAUAAAGUUGUUUUUGAAA	-0.00661
UCCUGUGCUACACAUCGUAUGUACCGAAUCGGUUUUUUUGGAAAAAAAGGUUUUUUUGGAAAGUAUUAUGUUACGCCGUUCGGAUCUGCA	-0.858
UGUGAGACUGAAGAUUAUGGAGAAAAGUUUGAUGAAAAUGAUGUGAUUACAUGUUUUGCUGUAAGUUAAAGCUAACUUUCUAUGUAUAAA	-1.83
GUCCUGUGCUACACAUCGUAUGUACCGAAUCGGGCCCCCGGGGCCCCCGGGCCCCCGGGAAAGUAUUAUGUUACGCCGUUCGGAUCUGCA	-0.763

Study 5
Target: CCNE2, cyclin fold, Cln2 fusion (human)
Technique: yeast growth competition, sequencing
Matrix: yeast
Setting: strong parent motif
Baseline: not given
Direction: higher = stronger binding
Starting sequence: GMNC docking peptide (human); KNAKRNLSSEFAN; partner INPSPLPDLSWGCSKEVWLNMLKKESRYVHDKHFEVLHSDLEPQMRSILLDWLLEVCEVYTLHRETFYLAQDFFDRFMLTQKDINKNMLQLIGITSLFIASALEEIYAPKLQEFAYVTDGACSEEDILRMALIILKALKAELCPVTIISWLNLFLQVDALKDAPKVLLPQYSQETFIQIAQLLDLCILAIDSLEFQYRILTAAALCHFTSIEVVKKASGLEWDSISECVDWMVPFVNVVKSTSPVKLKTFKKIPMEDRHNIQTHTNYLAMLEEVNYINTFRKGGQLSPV
Substitution	normalised enrichment score
KNAKMNLSSEFAN [R5M]	0.237
KNAKRNLSSEFRN [A12R]	1.43
KNAKRNLISEFAN [S8I]	2.27
KNAKRNLSSEFKN [A12K]	1.05
KNAKRLLSSEFAN [N6L]	-0.18
KNAKRNLGSEFAN [S8G]	0.752
KNAKRNRSSEFAN [L7R]	0.409
KSAKRNLSSEFAN [N2S]	1.83
KNAKRNLSSEWAN [F11W]	1.12
KNAKRNLSSDFAN [E10D]	0.704
KTAKRNLSSEFAN [N2T]	1.71
KNAKRCLSSEFAN [N6C]	0.266
KNAKRNNSSEFAN [L7N]	0.244
KNAKDNLSSEFAN [R5D]	-0.00385
KNAKRNASSEFAN [L7A]	0.678
KNAKKNLSSEFAN [R5K]	0.408
KNAKRNLSSEFCN [A12C]	1.45
KNAKRNYSSEFAN [L7Y]	-0.0622
KNAKVNLSSEFAN [R5V]	0.181
KEAKRNLSSEFAN [N2E]	1.06
KQAKRNLSSEFAN [N2Q]	1.23
